Results collected from several papers.
Compare with care: the assays were run in different laboratories. ± marks the error that the study gave.

SMILES = CC[C@H](C)[C@H](NC(=O)[C@H](CCCCN)NC(=O)CNC(=O)[C@H](CC(C)C)NC(=O)[C@H](Cc1ccccc1)NC(=O)[C@H](CCCCN)NC(=O)[C@H](CO)NC(=O)[C@H](Cc1ccccc1)NC(=O)[C@H](Cc1c[nH]c2ccccc12)NC(=O)[C@H](CCC(N)=O)NC(=O)[C@@H](NC(=O)[C@H](Cc1ccccc1)NC(=O)CCCCCNC(=O)CN1CCN(CC(=O)O)CCN(CC(=O)O)CCN(CC(=O)O)CC1)C(C)C)C(=O)N[C@@H](CCC(=O)O)C(=O)N1CCC[C@H]1C(=O)N[C@@H](CC(=O)O)C(=O)N[C@H](C(=O)N[C@@H](CO)C(=O)N[C@@H](CCC(N)=O)C(=O)N[C@H](C(=O)N[C@@H](CCC(N)=O)C(=O)N[C@@H](CC(=O)O)C(=O)N1CCC[C@H]1C(=O)N[C@@H](CC(N)=O)C(=O)N[C@@H](CC(=O)O)C(=O)N[C@@H](CCC(N)=O)C(=O)N[C@@H](Cc1ccc(O)cc1)C(=O)N[C@@H](CCC(=O)O)C(=O)N1CCC[C@H]1C(=O)N[C@@H](Cc1ccccc1)C(=O)O)C(C)C)C(C)C [copper-64 labelled]; test system = C57BL/6 mice, male, tumour-free, kidneys; conditions = 2 h; tissue uptake = 54.4 ± 9.5 %ID/g
SMILES = CSCC[C@H](NC(=O)CNC(=O)[C@H](CCCCN)NC(=O)[C@H](CC(C)C)NC(=O)[C@@H]1CCCN1C(=O)[C@H](CO)NC(=O)[C@H](Cc1c[nH]cn1)NC(=O)[C@H](Cc1c[nH]c2ccccc12)NC(=O)[C@H](CCCNC(=N)N)NC(=O)[C@H](CC(C)C)NC(=O)[C@H](CCCNC(=N)N)NC(=O)[C@H](Cc1c[nH]c2ccccc12)NC(=O)[C@H](CS)NC(=O)CCCCCNC(=O)CN1CCN(CC(=O)O)CCN(CC(=O)O)CCN(CC(=O)O)CC1)C(=O)O [copper-64 labelled]; assay = ex vivo biodistribution; test system = BALB/c nude mice, stomach; conditions = intravenous, dose not given, 1 h, Huh-7 tumour-bearing; tissue uptake = 2.93 %ID/g
SMILES = CC[C@H](C)[C@H](NC(=O)[C@@H](Cc1c[nH]c2ccccc12)NC(=O)[C@@H]1CCCN1C(=O)[C@H](CCCCN)NC(=O)[C@H](CCCCN)NC(=O)CCNC(=O)CCNC(=O)CN1CCN(CC(=O)O)CCN(CC(=O)O)CCN(CC(=O)O)CC1)C(=O)N[C@@H](C[Si](C)(C)C)C(=O)O [gallium-68 labelled]; test system = nude mouse HT-29 xenograft, intestine; conditions = 90 min; tissue uptake = 0.62 ± 0.31 %ID/g
SMILES = C[C@H](O)[C@@H](NC(=O)[C@H]1CCCN1C(=O)[C@@H](CCCCN)NC(=O)[C@@H](CO)NC(=O)[C@@H](Cc1ccc(O)cc1)NC(=O)[C@@H](CC(N)=O)NC(=O)CCOCCOCCOCCNC(=O)CN1CCN(CC(=O)O)CCN(CC(=O)O)CCN(CC(=O)O)CC1)C(=O)N[C@H](CC(=O)O)C(=O)N[C@H](CCCNC(=N)N)C(=O)N[C@H](CCC(N)=O)C(=O)N[C@H](Cc1ccc(O)cc1)C(=O)N[C@H](Cc1c[nH]cn1)C(=O)N[C@H](Cc1ccccc1)C(N)=O [gallium-68 labelled]; test system = BALB/c nude mice U-87 MG tumour, kidney; conditions = intravenous, 1.85 MBq, 0.08333 h, radiolabelled; tissue uptake = 19.2 ± 1.95 %ID/g
SMILES = CC[C@H](C)[C@H](NC(=O)[C@H](CCCNC(=N)N)NC(=O)[C@H](CCCCN)NC(=O)[C@H](Cc1ccc(O)cc1)NC(=O)[C@H](CC(=O)O)NC(=O)[C@H](C)NC(=O)CNC(=O)CCOCCOCCOCCNC(=O)CN1CCN(CC(=O)O)CCN(CC(=O)O)CCN(CC(=O)O)CC1)C(=O)N[C@H](C(=O)N[C@@H](CC(C)C)C(=O)N[C@@H](CCCCN)C(=O)N[C@H](C(=O)N[C@@H](CC(N)=O)C(N)=O)C(C)C)[C@@H](C)O [copper-64 labelled]; assay = ex vivo gamma counting; test system = C57BL/6J male mice, B16-F10 tumour, thymus; conditions = intravenous, 1.85 MBq, 40 min; tissue uptake = 0.66 ± 0.171 %ID/g
SMILES = CN1Cc2cc(Cl)ccc2-n2c(nnc2C2CCN(c3cccc([18F])n3)CC2)C1; test system = C57BL/6 mouse male, liver; conditions = intravenous, 3.7 MBq, 1 min; tissue uptake = 10.7 ± 5.65 %ID/g
SMILES = CC[C@H](C)[C@H](NC(=O)[C@H](CCCNC(=N)N)NC(=O)[C@H](CCCCN)NC(=O)[C@H](Cc1ccc(O)cc1)NC(=O)[C@H](CC(=O)O)NC(=O)[C@H](C)NC(=O)CNC(=O)CCOCCOCCOCCNC(=O)CN1CCN(CC(=O)O)CCN(CC(=O)O)CCN(CC(=O)O)CC1)C(=O)N[C@H](C(=O)N[C@H](C(=O)N[C@@H](CCCCN)C(=O)N[C@H](C(=O)N[C@@H](CC(N)=O)C(N)=O)C(C)C)C(C)C)[C@@H](C)O [copper-64 labelled]; assay = ex vivo gamma counting; test system = C57BL/6J male mice, B16-F10 tumour, brain; conditions = intravenous, 1.85 MBq, 40 min; tissue uptake = 0.105 ± 0.002 %ID/g
SMILES = CCCC[C@H]1C(=O)N(C)[C@@H](CCCC)C(=O)N[C@@H](CCCNC(=O)CN2CCN(CC(=O)O)CCN(CC(=O)O)CCN(CC(=O)O)CC2)C(=O)N[C@H](C(=O)NCC(N)=O)CSCC(=O)N[C@@H](Cc2ccc(O)cc2)C(=O)N(C)[C@@H](C)C(=O)N[C@@H](CC(N)=O)C(=O)N2CCC[C@H]2C(=O)N[C@@H](Cc2c[nH]cn2)C(=O)N[C@@H](CC(C)C)C(=O)N(C)CC(=O)N[C@@H](Cc2c[nH]c3ccccc23)C(=O)N[C@@H](CO)C(=O)N[C@@H](Cc2c[nH]c3ccccc23)C(=O)N1C [gallium-68 labelled]; test system = NOD/SCID mice, CHO-hPD-L1 xenograft, pancreas; conditions = 60 min, with: blocking agent 50 µg co-injected; tissue uptake = 3.24 ± 0.38 %ID/g

For quick reference, copied from above:
SMILES = C[C@H](O)[C@@H](NC(=O)[C@H]1CCCN1C(=O)[C@@H](CCCCN)NC(=O)[C@@H](CO)NC(=O)[C@@H](Cc1ccc(O)cc1)NC(=O)[C@@H](CC(N)=O)NC(=O)CCOCCOCCOCCNC(=O)CN1CCN(CC(=O)O)CCN(CC(=O)O)CCN(CC(=O)O)CC1)C(=O)N[C@H](CC(=O)O)C(=O)N[C@H](CCCNC(=N)N)C(=O)N[C@H](CCC(N)=O)C(=O)N[C@H](Cc1ccc(O)cc1)C(=O)N[C@H](Cc1c[nH]cn1)C(=O)N[C@H](Cc1ccccc1)C(N)=O [gallium-68 labelled]; test system = BALB/c nude mice U-87 MG tumour, kidney; conditions = intravenous, 1.85 MBq, 0.08333 h, radiolabelled; tissue uptake = 19.2 ± 1.95 %ID/g
